{"data": "Published values from different studies", "note": "Lines come from different studies, so protocols differ. Numbers after ± are the reported error.", "sequence of UniProt P16050 (whole entry, looked up)": "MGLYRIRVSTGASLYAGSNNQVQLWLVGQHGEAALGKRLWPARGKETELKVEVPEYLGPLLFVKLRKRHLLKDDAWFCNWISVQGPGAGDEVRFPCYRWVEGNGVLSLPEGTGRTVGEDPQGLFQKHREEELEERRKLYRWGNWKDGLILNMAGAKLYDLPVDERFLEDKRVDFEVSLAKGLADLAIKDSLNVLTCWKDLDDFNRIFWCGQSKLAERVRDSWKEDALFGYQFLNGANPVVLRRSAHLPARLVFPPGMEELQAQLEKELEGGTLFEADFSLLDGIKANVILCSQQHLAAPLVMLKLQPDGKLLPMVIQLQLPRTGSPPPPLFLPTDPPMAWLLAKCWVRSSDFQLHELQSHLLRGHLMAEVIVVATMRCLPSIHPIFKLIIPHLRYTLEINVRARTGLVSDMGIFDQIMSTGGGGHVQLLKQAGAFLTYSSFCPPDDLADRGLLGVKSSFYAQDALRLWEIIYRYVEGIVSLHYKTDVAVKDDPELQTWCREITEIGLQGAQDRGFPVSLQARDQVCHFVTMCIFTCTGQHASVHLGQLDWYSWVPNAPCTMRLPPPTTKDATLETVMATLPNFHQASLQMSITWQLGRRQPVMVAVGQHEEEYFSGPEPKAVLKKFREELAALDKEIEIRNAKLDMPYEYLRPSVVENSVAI"}
{"SMILES": "O=C1Nc2cc3[nH]nc(-c4ccncc4)c3cc2CN1Cc1ccccc1", "assay": "CTCAE v4.03", "system": "human, relapsed or refractory advanced solid tumours", "conditions": "intravenous, 7.2 mg/kg, pooled schedules", "measurement": "patients with nausea", "result": "20%"}
{"SMILES": "O=S(=O)(Nc1ccccc1)c1ccc(NC(=S)Nc2ccccc2)cc1", "assay": "measured: Glu", "system": "female mouse, blood", "conditions": "oral, 80 mg/kg daily, 14 days", "measurement": "blood chemistry level", "result": "187 mg/dL"}
{"SMILES": "CO[C@H]1C[C@@H]2CC[C@@H](C)[C@@](O)(O2)C(=O)C(=O)N2CCCC[C@H]2C(=O)O[C@H]([C@H](C)C[C@@H]2CC[C@@H](OC(=O)NCCOCCOCCOCCOCCOCCOCCOCCOCCC(=O)N3CCc4cc(Cn5nc(-c6ccc7oc(N)nc7c6)c6c(N)ncnc65)ccc4C3)[C@H](OC)C2)C[C@@H](O)[C@H](C)/C=C(\\C)[C@@H](O)[C@@H](OC)C(=O)[C@H](C)C[C@H](C)/C=C/C=C/C=C/1C", "system": "patients with advanced solid tumours", "conditions": "intravenous, 12 mg weekly, any grade", "measurement": "constipation incidence", "result": "25%"}
{"SMILES": "CC[C@H](C)[C@@H]1NC(=O)[C@@H]2CCCN2C(=O)[C@H](CC(C)C)NC(=O)[C@H](CC(C)C)NC(=O)CNC(=O)[C@@H](NC(=O)[C@@H](NC(=O)[C@H](CC(=O)O)NC(=O)CNC(=O)[C@@H](NC(=O)[C@H](C)NC(=O)CNC(=O)[C@H](CCCCN)NC(=O)[C@H](CC(C)C)NC(=O)[C@H](CC(C)C)NC(=O)[C@H](CCCCN)NC(=O)CNC(=O)[C@@H](NC(=O)[C@@H](N)CC(C)C)C(C)C)C(C)C)C(C)C)CSSC[C@@H](C(=O)O)NC1=O", "assay": "RNA-seq, measured: P2ry2 mRNA", "system": "mouse traumatic brain injury, frontal cortex and hippocampus", "conditions": "dose not given", "scale": "baseline: TBI plus compound vs TBI", "measurement": "log2 fold change", "result": -2.31}
{"SMILES": "COc1cc(Nc2ncc(F)c(Nc3ccc4c(n3)NC(=O)C(C)(C)O4)n2)cc(OC)c1OC", "target or system": "Polyunsaturated fatty acid lipoxygenase ALOX15 (ALOX15, Homo sapiens, UniProt P16050)", "measurement": "IC50", "result": "> 10 µM"}
{"SMILES": "Cc1cc(C(=O)NC(C)(C)COc2cccc3c2C(N)=NS(=O)(=O)N3)cc(C)n1", "target or system": "Salmonella typhimurium", "assay": "Ames test", "system": "TA100", "conditions": "500 µg/plate, without S9", "scale": "baseline: treated over solvent", "measurement": "revertant ratio", "result": 1.2}
{"SMILES": "CC[C@H](C)[C@H](NC(=O)[C@H](Cc1ccccc1)NC(=O)[C@H](CCC(=O)O)NC(=O)[C@H](CCCNC(=N)N)NC(=O)[C@H](C)NC(=O)[C@H](C)NC(=O)[C@H](CCC(N)=O)NC(=O)[C@H](CCC(=O)O)NC(=O)[C@H](CCC(=O)O)NC(=O)[C@H](CC(C)C)NC(=O)[C@H](Cc1ccc(O)cc1)NC(=O)[C@H](CO)NC(=O)[C@H](CO)NC(=O)[C@@H](NC(=O)[C@H](CC(=O)O)NC(=O)[C@H](CO)NC(=O)[C@@H](NC(=O)[C@H](Cc1ccccc1)NC(=O)[C@@H](NC(=O)CNC(=O)[C@H](CCC(=O)O)NC(=O)[C@H](C)NC(=O)CCc1c[nH]cn1)[C@@H](C)O)[C@@H](C)O)C(C)C)C(=O)N[C@@H](C)C(=O)N[C@@H](Cc1c[nH]c2ccccc12)C(=O)N[C@@H](CC(C)C)C(=O)N[C@H](C(=O)N[C@@H](CCCNC(=N)N)C(=O)NCC(=O)N[C@@H](CCCNC(=N)N)C(=O)N[C@@H](CCCCNC(=O)COCCOCCNC(=O)COCCOCCNC(=O)CC[C@H](NC(=O)CCCCCCCCCCCCCCCCC(=O)O)C(=O)O)C(=O)NCC(=O)NCC(=O)N[C@@H](CO)C(=O)N[C@@H](CCCCNc1c(NCCCCCN(O)C(=O)CCC(=O)NCCCCCN(O)C(=O)CCC(=O)NCCCCCN(O)C(C)=O)c(=O)c1=O)C(=O)O)C(C)C [zirconium-89 labelled]", "system": "rat, colon", "conditions": "iv, 3 nmol/kg, 168 h, ex vivo", "measurement": "tissue uptake", "result": "0.17 %ID/g"}
{"SMILES": "N=C(N)NCCC[C@H](NC(=O)[C@H](CCCNC(=N)N)NC(=O)[C@H](CCCCN)NC(=O)[C@H](CCC(N)=O)NC(=O)[C@H](CCCCN)NC(=O)[C@H](Cc1ccc(O)cc1)NC(=O)[C@@H](N)CCCCN)C(=O)N[C@@H](CO)C(=O)N[C@@H](Cc1ccc(O)cc1)C(=O)N[C@@H](CCCCN)C(=O)O", "system": "human, dentin hypersensitivity patients", "conditions": "topical to exposed dentin, up to 10 µg/tooth", "measurement": "safety and tolerability", "result": "not toxic"}
{"SMILES": "C[C@@H]1NC(=O)[C@H](CCCCNC(=O)CO/N=C/C(=O)NCCCC[C@@H]2NC(=O)[C@@H](Cc3ccccc3)NC(=O)[C@H](CC(=O)O)NC(=O)CNC(=O)[C@H](CCCNC(=N)N)NC2=O)NC(=O)CNC(=O)[C@@H]2CCCN2C(=O)[C@H](CCCCNC(=O)CO/N=C/C(=O)NCCCC[C@@H]2NC(=O)[C@@H](Cc3ccccc3)NC(=O)[C@H](CC(=O)O)NC(=O)CNC(=O)[C@H](CCCNC(=N)N)NC2=O)NC(=O)[C@H](CCCCNC(=O)[C@H](CCCCN)NC(=O)[C@H](Cc2ccccc2)NC(=O)CNC(=O)CN2CCCNCCNCCCNCC2)NC(=O)[C@H](CCCCNC(=O)CO/N=C/C(=O)NCCCC[C@@H]2NC(=O)[C@@H](Cc3ccccc3)NC(=O)[C@H](CC(=O)O)NC(=O)CNC(=O)[C@H](CCCNC(=N)N)NC2=O)NC(=O)CNC(=O)[C@@H]2CCCN2C(=O)[C@H](CCCCNC(=O)CO/N=C/C(=O)NCCCC[C@@H]2NC(=O)[C@@H](Cc3ccccc3)NC(=O)[C@H](CC(=O)O)NC(=O)CNC(=O)[C@H](CCCNC(=N)N)NC2=O)NC1=O [copper-64 labelled]", "system": "normal mice, spleen", "conditions": "intravenous, 0.74 MBq, 3 h post-injection", "measurement": "tissue uptake", "result": "7.22 ± 1.5 %ID/g"}
{"SMILES": "C[C@H]1CN(c2n[nH]c3nc(N[C@H]4CC[C@H](NS(=O)(=O)CCC(F)(F)F)CC4)ncc23)CCO1", "target or system": "Paxillin (PXN, Homo sapiens, UniProt P49023)", "assay": "competitor, Kinobeads competition, measured: PXN", "system": "human cell extract", "conditions": "0.8 µM", "scale": "baseline: vehicle", "measurement": "relative abundance", "result": 1.08}
{"SMILES": "COc1ncnn2ccc(-c3cnc4nc(C)n(Cc5nnc([C@@H](C)F)o5)c4c3)c12", "system": "human", "conditions": "oral, dose not given, grade 2", "measurement": "patients with dysgeusia", "result": "7.1%"}
{"SMILES": "O=C(c1ccc(F)c(F)c1Nc1ccc(I)cc1F)N1CC(O)([C@@H]2CCCCN2)C1", "system": "patients aged 2 to 6 years", "conditions": "oral, dose not given", "measurement": "adverse events", "result": "100%"}
{"SMILES": "CC(=O)c1c(C)c2cnc(Nc3ccc(C4CCN(CCS(C)(=O)=O)CC4)cn3)nc2n(C2CCCC2)c1=O", "system": "human, dose-escalation trial, plasma", "conditions": "oral, 50 mg twice daily, day 1, single dose", "measurement": "Cmax", "result": "89.6 ng/mL"}
{"SMILES": "CN1CC[C@@H](c2c(O)cc(O)c3c(=O)cc(-c4ccc(C(F)(F)F)cc4Cl)oc23)[C@@H]1CO", "assay": "measured: Lymphopenia", "system": "relapsed or refractory haematological malignancies", "conditions": "oral, dose not given, grade 3 to 4, all arms", "measurement": "patients with adverse event", "result": "7.5%"}
{"SMILES": "COc1cc2c(Oc3ccc4[nH]c(C)cc4c3F)ccnc2cc1OCC1(N)CC1", "system": "paediatric recurrent refractory sarcoma", "conditions": "8 mg", "measurement": "grade 1 or 2 hand-foot syndrome", "result": "0%"}
{"note": "Repeated from above:"}
{"SMILES": "CO[C@H]1C[C@@H]2CC[C@@H](C)[C@@](O)(O2)C(=O)C(=O)N2CCCC[C@H]2C(=O)O[C@H]([C@H](C)C[C@@H]2CC[C@@H](OC(=O)NCCOCCOCCOCCOCCOCCOCCOCCOCCC(=O)N3CCc4cc(Cn5nc(-c6ccc7oc(N)nc7c6)c6c(N)ncnc65)ccc4C3)[C@H](OC)C2)C[C@@H](O)[C@H](C)/C=C(\\C)[C@@H](O)[C@@H](OC)C(=O)[C@H](C)C[C@H](C)/C=C/C=C/C=C/1C", "system": "patients with advanced solid tumours", "conditions": "intravenous, 12 mg weekly, any grade", "measurement": "constipation incidence", "result": "25%"}
